Assay results gathered from unrelated publications.
Protocols differ between the studies behind these lines. Values joined by “and” are separate records of one study, mostly repeats; a detail may differ. Numbers after ± are the reported error.

With `C[C@@H]1CC[C@H]2[C@@H](C)C(=O)O[C@@H]3O[C@@]4(C)CC[C@@H]1[C@]32OO4` the Tmax was 1.5 ± 1.3 h (human, male, plasma; oral, dose not given, day 2).
For `CC(=O)c1c(C)c2cnc(Nc3ccc(C4CCN(CCS(C)(=O)=O)CC4)cn3)nc2n(C2CCCC2)c1=O`, the Tmax was 2 h (human, plasma; oral, 50 mg twice daily, day 1, single dose, together with: letrozole).
With `OCc1ncc2n1-c1ccc(Cl)cc1C(c1ccccc1F)=NC2` the Tmax was 0.5 h (human, plasma; oral, 2 mg midazolam, day 1, midazolam alone, median).
With `O=C(O)C(F)(F)C(F)(F)C(F)(F)C(F)(F)C(F)(F)C(F)(F)C(F)(F)F` the Tmax was 2 h (two-compartment model; human, plasma; oral, 50 mg weekly).
`OCc1ncc2n1-c1ccc(Cl)cc1C(c1ccccc1F)=NC2` has a Tmax of 2 h (humans, plasma; 3 mg of midazolam, together with: isavuconazole).
The Tmax of `OCc1ncc2n1-c1ccc(Cl)cc1C(c1ccccc1F)=NC2` is reported as at most 1 h (CYP3A4 probe metabolite; human, plasma; oral, 2 mg midazolam, probe cocktail).
With `CC(C)c1nc(N(C)S(C)(=O)=O)nc(-c2ccc(F)cc2)c1/C=C/[C@@H](O)C[C@@H](O)CC(=O)O` the Tmax was 4 h (healthy human subjects, plasma; oral, 20 mg, day 1, alone, median).
`O=C(O)C(O)(c1cccs1)c1cccs1` gave a Tmax of 11.5 h (measured: metabolite; human, plasma; oral, 50 mg once daily, 5 days, median).
`CC(C)[C@H](N)C(=O)NCCCS(=O)(=O)O` gave a Tmax of 1.4 h (human, plasma; oral, 265 mg twice daily, week 65, steady state).
`O=c1ccc2ncc(=O)n3c2n1C[C@H]3CN1CCC(NCc2cc3c(cn2)OCCC3)CC1` gave a Tmax of 2 h (healthy human volunteers, plasma; oral, dose not given, median, together with: rifampicin).
The Tmax of `COc1ccc(C[C@@H]2NC(=O)[C@H]([C@@H](C)O)NC(=O)[C@@H]3[C@@H]4CCN3C(=O)[C@@H]3Cc5cn(c6ccc(F)cc56)CCCCCCN(Cc5ccc(cc5)CCNC(=O)[C@]5(C)CCCN5C2=O)C(=O)CCC(=O)N[C@@H](C)C(=O)N[C@H](CNC(=O)CCCCC[N+](C)(C)C)C(=O)N[C@@H](Cc2cccc(c2)CNC(=O)CO4)C(=O)N3)cc1` is reported as 8.08 h (human, plasma; oral, 40 mg, high-fat breakfast 30 min before, together with: sodium caprate 720 mg).
`O[C@H]1CCCN[C@@H]1CCCn1cnc2c(Cl)c(Cl)ccc21` gave a Tmax of 4 h (healthy human, plasma; oral, 150 mg, steady state, together with: nintedanib 150 mg).
`C[C@H](NC(=O)c1c(C(F)F)nn(C)c1Oc1cccc(C(F)(F)F)c1)c1ccc(C(=O)O)cc1` has a Tmax of 2 h (human, plasma; 500 mg, cycle 1 day 8, median).
The Tmax of `C[C@@](Cc1ccc(O)c(O)c1)(NN)C(=O)O` is reported as 20 h (measured: levodopa; healthy human volunteers, plasma; subcutaneous, 24 h infusion, median, crossover).
`N.N.O=C([O-])C1(C(=O)[O-])CCC1.[Pt+2]` has a Tmax of 0.6 h (measured: non-protein-bound platinum; human, plasma ultrafiltrate; target AUC 3, median).
For `OCc1ncc2n1-c1ccc(Cl)cc1C(c1ccccc1F)=NC2`, the Tmax was 2 h (healthy human volunteers, plasma; 5 mg single dose, day 1, fed, given alone).
The Tmax of `CCOC(=O)C1=C[C@@H](OC(CC)CC)[C@H](NC(C)=O)[C@@H](N)C1` is reported as 1.5 h (human, both sexes, plasma; oral, 150 mg, median, together with: alcohol).
`CCOC(=O)C1=C(CN2CCOCC2)NC(c2nccs2)=NC1c1ccc(F)cc1Br` (stereo not drawn) has a Tmax of 0.75 h (human, healthy; fasted).
The Tmax of `CCCCCCCCCCC(=O)O[C@H]1CC[C@H]2[C@@H]3CCC4=CC(=O)CC[C@]4(C)[C@H]3CC[C@]12C` is reported as 4 h and 3 h (measured: testosterone; human, plasma; oral, 237 mg).
`C=C(C)[C@@H]1CC[C@]2(NCCN3CCS(=O)(=O)CC3)CC[C@]3(C)[C@H](CC[C@@H]4[C@@]5(C)CC=C(C6=CC[C@@](COc7ncccc7C#N)(C(=O)O)CC6)C(C)(C)[C@@H]5CC[C@]43C)[C@@H]12` gave a Tmax of 6 h (human, fasted; oral, 100 mg tablet, median).
For `OCc1ncc2n1-c1ccc(Cl)cc1C(c1ccccc1F)=NC2`, the Tmax was 0.5 h (human, plasma; 7.5 mg midazolam, day 19, median, metabolite of midazolam, together with: midazolam 7.5 mg alone).

Excerpt of the above:
With `OCc1ncc2n1-c1ccc(Cl)cc1C(c1ccccc1F)=NC2` the Tmax was 0.5 h (human, plasma; oral, 2 mg midazolam, day 1, midazolam alone, median).
